Assay results of several laboratories.
Numbered parts are unrelated; each lists some results of a single study.

Set 1
Target: RING finger protein unkempt homolog, zinc fingers 1-6, GST-SBP tag (UNK, Homo sapiens, UniProt Q9C0B0, residues 30-357)
Sequence of UniProt Q9C0B0 (30-357, looked up): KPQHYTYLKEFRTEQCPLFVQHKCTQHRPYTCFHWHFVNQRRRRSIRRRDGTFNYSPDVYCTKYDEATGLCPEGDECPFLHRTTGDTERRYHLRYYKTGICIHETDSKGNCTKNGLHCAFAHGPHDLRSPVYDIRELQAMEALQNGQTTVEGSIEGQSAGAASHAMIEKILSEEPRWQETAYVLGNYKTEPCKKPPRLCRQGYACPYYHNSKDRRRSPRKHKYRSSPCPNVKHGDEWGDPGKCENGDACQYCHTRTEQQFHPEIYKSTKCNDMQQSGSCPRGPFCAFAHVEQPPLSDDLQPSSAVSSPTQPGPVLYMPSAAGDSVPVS
Method: RNA Bind-n-Seq
Molecule type: RNA
Medium: in vitro
Tested at: not given
Notes: RNA with constant flanks, ends assumed
Reference: input RNA pool
Direction: higher = stronger binding
All sequences stand within: GGGAGUUCUACAGUCCGACGAUC … CAACAGAGGAUUGAGCAUCA
Oligonucleotide | bound/input enrichment
CUUGAAUGGCUUAGGGCUCAACCAGACUGUUGAUCUCCUCAUGCAAGAGUCAGGAUGUCGUUCCGAACAUCCUUCUGCUACCAAAUUCCGAAAUCAUGUCAUGGAAGGAGACUGGGAUAA | 0.0648 ratio
UGUGGCGCCAGAGGCCUAGGUGCUGACCCCGGCUUAGAGAGAAGAAAGAAUAUCUUGUUCUUUGUCCGAAAUCUCCACAGCAAGAGUAGUACUUGGUGGGAUGAACAUCUUUCUGAAGAA | 0.112 ratio
CAGGCUUACGCUCCAGAAGAGGCAGCCCAAGAGGAGGAAUCAGUUCUCUGGACGAUAUUGAUCCGCAUUUUGAAACUGGUGCUUGAAAUUCUCUUCUGAUCCCUUGAAUAUGCUGGAGCA | 0.145 ratio
AUCACUAUUGGAUCCAUCUCUUUCCUUCUGGGAGUUGUACUGCUAGUAAUUAAUCAUAAAUACCGAAACAGUAGUAACACUGCUGACAUCACCAUUUAAUUUUAUAUUCUGAAACCAAAU | 0.849 ratio
GCCUGGGAGAUUAACAGGAAACUUCCAAGAUGGAAACUUUGUCUUUCCCCAGAUAUAAUGCCGCUGAGAUUGUGAUUCAUAUUCGCAAUAAGAUCUUAACAGGAGCUGAUGGUAAAAACC | 0.223 ratio
GCCUGGCUUGUGGAUCAUGUAUAUGCCAUCCGCGAGGCAGCCACCAGCAACCUGAAGAAGCCCGUGGAAAAGUUUGGGAAGGAGUGGGCCCAUGCCACAAUCAUCCCCAAGGUCUUGGCC | 0.107 ratio
GCCAUCUAUGACAUCUGUCGUAGAAACCUCGAUAUUGAGCGUCCAACCUAUACUAACCUGAACCGGUUAAUAGGUCAAAUUGUGUCCUCCAUCACUGCUUCCCUGAGAUUUGAUGGAGCC | 0.0818 ratio
CCCUCCGCUGGGAACGAUGGCUUCUGCCUAGUACCUAUCCUUGUGUUUCUGAUGCAGUGGCCGCAUUGGUUCAAGUUCUCUCCUGCUGUGGUCAGAGUUGCUUCGAUGUUGGCCAAGUGC | 0.446 ratio
AUUUUUUUUUUUAAAUGUGUGUAGACUGUAACUUUCUUUUCAGUUCGUAUGCAGAACAUAUUCCGCCAUUACCCAUGCAACACCACCCGAUAUAUUACUGAUUUAGAAGCAAAGAUUUCA | 1.37 ratio
GGUUUGCAAAUUUUUUUUAAAUGCAAUCUUUUUAUUUUUCUACUUGGUUUUGGUUAUAAUCACCGAAAGCAAGAAACUAUUAUUGAAAUUAAUGUUUUCUUCUGAUAUAAUAAUGGAAGC | 1.4 ratio
UUCUCUCGAGUUGAAGAAGACUAUCUCUGGAGGAUAAAACAACUAGGAUCACACUCUCCAGCCGCUCUUCUGAAUACACUGUUCUACUUUAACACUAAGUAUUUUGGCCUGAAAACAGUG | 0.338 ratio

Set 2
Target: Ras GTPase-activating protein-binding protein 1, full length (G3BP1, Homo sapiens, UniProt Q13283)
Sequence of UniProt Q13283 (whole entry, looked up): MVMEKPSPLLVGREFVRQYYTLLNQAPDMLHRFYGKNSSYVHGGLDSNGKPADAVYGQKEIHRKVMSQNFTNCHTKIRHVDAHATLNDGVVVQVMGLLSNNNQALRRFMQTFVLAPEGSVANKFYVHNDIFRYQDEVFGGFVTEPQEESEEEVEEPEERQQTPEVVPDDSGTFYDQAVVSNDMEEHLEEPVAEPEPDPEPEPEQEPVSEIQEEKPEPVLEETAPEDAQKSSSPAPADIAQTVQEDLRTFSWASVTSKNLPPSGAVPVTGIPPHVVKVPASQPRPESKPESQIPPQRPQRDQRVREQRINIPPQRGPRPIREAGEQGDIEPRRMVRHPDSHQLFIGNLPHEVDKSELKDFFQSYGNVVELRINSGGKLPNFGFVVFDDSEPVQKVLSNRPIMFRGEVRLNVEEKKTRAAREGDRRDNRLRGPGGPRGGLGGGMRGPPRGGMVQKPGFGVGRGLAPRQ
Method: RNA Bind-n-Seq
Molecule type: RNA
Medium: in vitro
Tested at: 200 nM
Notes: whole 134-nt RNA, ends assumed
Together with: 150 mM KCl
Reference: input library
Direction: higher = stronger binding
All sequences stand within: GGGAGUUCUACAGUCCGACGAUC … UGGAAUUCUCGGGUGUCAAGG
Oligonucleotide | log2 enrichment
CCUGUGCUACACAUCGUAUGUACCGAAUCGGUUUUUUUGGGGUUUUUUUGGUUUUUUUGGAAAGUAUUAUGUUACGCCGUUCGGAUCUGC | -0.741
ACCAUCCAGGUGGGCAUCUUUGGGAAGUGGGGCAAGGGGGGGAUAGGGAGGGGGGUAACACUUUGGGAACAGGUGGUCCCAGGUCGUUUC | 1.1
GCAGGCAGUAAAAACAAAUGGAAAUGCUUCGGAUAGUGGCAGGGGUGGGGGUUGCUAAGGAAAGGGUGGGAUGGGAGUGGGUAAAGAGUU | 1.25
GUCCUGUGCUACACAUCGUAUGUACCGAAUCGGGGAAAAGGGAAAAGGGGAAAAGGGGAAAGUAUUAUGUUACGCCGUUCGGAUCUGCAC | 0.384
CCUGUGCUACACAUCGUAUGUACCGAAUCAAACCCCCCCAAACCCCCAAAUUUUUUUAAAAAAGUAUUAUGUUACGCCGUUCGGAUCUGC | 0.101
UGGCCCUGGUGGCAUGCGGGGAGGAAGAGGUGGCCUCAUGGAUCGCGGUGGUCCCGGUGGAAUGUUCAGAGGUGGCCGUGGUGGAGACAG | 0.241
AAGUCCUGUGCUACACAUCGUAUGUACCGAAUCGGGGAGGGGUUUUUGGGGAGGGGAAAGUAUUAUGUUACGCCGUUCGGAUCUGCACUU | 0.894
UCAAGUCCUGUGCUACACAUCGUAUGUACCGAAUCGGAAAGGAAAGGAAAAAGGAAAGUAUUAUGUUACGCCGUUCGGAUCUGCACUUCC | -1.06
ACCAUGCAGGUGGGCAUCUUUGGGAAGUGGGGCAAGGGGGGGAUAGGGAGGGGGGUAACACUUUGGGAACAGGUGGUCCCAGGUCGUUUA | 1.38
UGGCCCUGGUGGCAUGCGGGGAGGAAGAGGUGGCCUCAUGGAUCGUGCUGGUCCCGGUGGAAUGUUCAGAGGUGGCCGUGGUGGAGACAG | 0.34
UCAAGUCCUGUGCUACACAUCGUAUGUACCGAAUCGGAGGAAAAAGGAAAAAGGAAAGUAUUAUGUUACGCCGUUCGGAUCUGCACUUCC | -1.05
AAGUCCUGUGCUACACAUCGUAUGUACCGAAUCGGGCCCCGGGCCCCGGGCCCCGGGAAAGUAUUAUGUUACGCCGUUCGGAUCUGCACU | -1.81
UGGGAGGUGGAUUUUGUUUAUUUUUUUAGCUCAUUUCCAGGGGUGGGAAUUUUUUUUUAAUAUGUGUCAUGAAUAAAGUUGUUUUUGAGA | 0.768
UGCCGUGCCGGGUGGACGGUCUGCUCGCCUGUCUGCGUGACGAAACUGAGGCACAAAGACGCGCUAUGCCAGCGGCGGGUAUAGCAAGGG | -0.506

Set 3
Target: Prothrombin, mature alpha-thrombin (F2, Homo sapiens, UniProt P00734)
Method: aptamer microarray, sandwich
Molecule type: DNA with 2'F-ANA
Medium: in vitro
Tested at: 200 nM
Notes: whole 15-mer aptamer, many near background
Together with: Cy3 exosite-II aptamer, 400 nM
Direction: higher = stronger binding
Oligonucleotide: GGTTGGTGTGGTTGG
Modification | mean fluorescence intensity [a.u.]
2'F-ANA at 2 4 5 9 10 15 | 46.9
2'F-ANA at 3 8 10 11 14 15 | 389
2'F-ANA at 3 4 7 10 13 15 | 276
2'F-ANA at 1 4 6 8 9 10 11 14 | 47.4
2'F-ANA at 1 4 11 12 13 15 | 172
2'F-ANA at 3 4 12 14 15 | 462
2'F-ANA at 1 3 4 5 7 12 13 14 | 47.7
2'F-ANA at 1 6 9 10 11 14 | 57.8
2'F-ANA at 5 6 8 10 11 | 50.7
2'F-ANA at 1 2 3 5 8 10 11 12 14 15 | 49.9
2'F-ANA at 3 4 10 11 12 13 | 362
2'F-ANA at 1 2 9 10 12 15 | 78.6
2'F-ANA at 1 2 3 4 6 7 8 10 12 13 14 | 55.5
2'F-ANA at 4 5 6 7 10 12 13 15 | 51.2
2'F-ANA at 1 4 6 9 12 13 14 | 48.9
2'F-ANA at 2 4 6 9 15 | 334
2'F-ANA at 2 3 4 5 6 8 11 15 | 75.6
2'F-ANA at 1 6 7 12 14 15 | 69.5

Set 4
Target: RNA binding protein fox-1 homolog 2, RRM domain, GST-SBP tag (RBFOX2, Homo sapiens, UniProt O43251-10, residues 100-194)
Method: RNA Bind-n-Seq
Molecule type: RNA
Medium: in vitro
Tested at: 365 nM
Notes: natural RNA segment, single round, ends assumed
Reference: no-protein control
Direction: higher = stronger binding
All sequences stand within: GGGAGUUCUACAGUCCGACGAUC … UGGAAUUCUCGGGUGCCAA
Construct (chain): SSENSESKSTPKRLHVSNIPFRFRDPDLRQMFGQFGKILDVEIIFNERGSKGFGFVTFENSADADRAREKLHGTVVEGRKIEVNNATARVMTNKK
Oligonucleotide | RBNS enrichment (R)
UUGUUCACUGCAGUCUUAAGAAAGAGGUAAAAGGCAAGCAAAGGAGAUGAAAUCUGUUCUGGGAAUGUUUCAGCAGCCAAUAAGUGCCCGAGCACACUGCCCCCGGUUGC | 1.06
AGCUCCGGUGACUGCAUGAGCCACCUGGCCACAGUCCUCCCAUGGAGGGCCUGCCGUGACGCUCAGUGGAGAGGGCAGGGCCUGUGUCUCCACUUAGGCCACACAGUGAU | 0.227
UAGUAGAGACCCAGCUGGCCUGGGGUCUGCUUUCCGACAUUUUGCCUCUCUCACUGGUCAUGUAUUUAUUCCAUAUUUAUAUGGUCUACUUCCUGUGGCUGGGAGCAGCA | 0.283
GAGUUCCUUCUCCUAAAGCUAAGGCCAGCCUCCAUCACAAAUGCCCAUAAAAUCUGGCUCGUCUUUGAUGAACAAUAAAUAUUUGUUGAACAAAUAAAUAACUGCCCUGC | 0.417
GGUUUGAUACCAAUAGGGGAAAAUGUAAAAUGUUCAGUCUUUAUGACAACCUGGCAUAAAGGAGUCAAUUCUUAUGAAAGAGACACAAGGGCCUUAUGGCCAGGGUUUCU | 0.318
GUCAUUGAAAAAGUAAUUUUACGUCUGGCUGGUGAGAGUAAAGUUGGAAAAAUAAUUUUGCAUUUUUUGAGCCUUUGAAAGUUGGAAAGUCCACUAACUGUUCAAAGAUA | 2.14
AUUGGGCAGGAGGCCACCAUCAUUUCUCCUCAGAAGCAAACCUCAGUGCCUGAGACUUUCCUGCCACGCUGCAGACAGUGGCAGUUGGUAGCAUGGGUGGUUCAUCAGAG | 1
GAUCAUGCCAUUCUUAAGUAAAUCAACUAUUUUCAACACUGAAGAAAAAUGAAACAUUAUUUAGAAAACAAUGAGAUUACAAGUUCCAAACUCAGCCAGGAAUGUGGCUC | 0.297
GAAUCUGUCAUCUCAGGCAAUAAUGUGUAGGUGUCACCAUGAGUCACAUACAGUUCUUUUUAGGCAUGAGUGUGUAUUACUGAUCCAACAUCUUCAUUCAUUCACUGAGU | 0.329
UAUGUAAGAGUGAUAUAAAACCUACCUCUGAGGUCAUUUAAUAAUAAGCACAGACAUGUGGAAAGUGCCUGACACAAAGCAGGUGCUCAAUAAAAGAGAGCUAUUGAAGU | 0.428
GCCAUCCCCUGCCCACCAUUGCCGUGGAGGGGGCUGCCAGGCAUAGCUGCUGUGAGCCAUGUCCUUGUGUGUGUCUGUUCACUCUUAGGAGCCACGCCCAAGGCGAGACU | 0.328
AUUGAUGGGCUGGGGAACCCUGGAGAGCCUCGACUCCGGAAGUCUCAAGGUGCCUCCUCCUCUCCUUAGCUGGCCCGUUGGUUUUCUGAGCAGGGGGCUGAACUGUGAAC | 0.228

Repeated from above (set 4):
Oligonucleotide | RBNS enrichment (R)
GAGUUCCUUCUCCUAAAGCUAAGGCCAGCCUCCAUCACAAAUGCCCAUAAAAUCUGGCUCGUCUUUGAUGAACAAUAAAUAUUUGUUGAACAAAUAAAUAACUGCCCUGC | 0.417
GGUUUGAUACCAAUAGGGGAAAAUGUAAAAUGUUCAGUCUUUAUGACAACCUGGCAUAAAGGAGUCAAUUCUUAUGAAAGAGACACAAGGGCCUUAUGGCCAGGGUUUCU | 0.318
GUCAUUGAAAAAGUAAUUUUACGUCUGGCUGGUGAGAGUAAAGUUGGAAAAAUAAUUUUGCAUUUUUUGAGCCUUUGAAAGUUGGAAAGUCCACUAACUGUUCAAAGAUA | 2.14
AUUGGGCAGGAGGCCACCAUCAUUUCUCCUCAGAAGCAAACCUCAGUGCCUGAGACUUUCCUGCCACGCUGCAGACAGUGGCAGUUGGUAGCAUGGGUGGUUCAUCAGAG | 1
GAUCAUGCCAUUCUUAAGUAAAUCAACUAUUUUCAACACUGAAGAAAAAUGAAACAUUAUUUAGAAAACAAUGAGAUUACAAGUUCCAAACUCAGCCAGGAAUGUGGCUC | 0.297
GAAUCUGUCAUCUCAGGCAAUAAUGUGUAGGUGUCACCAUGAGUCACAUACAGUUCUUUUUAGGCAUGAGUGUGUAUUACUGAUCCAACAUCUUCAUUCAUUCACUGAGU | 0.329
UAUGUAAGAGUGAUAUAAAACCUACCUCUGAGGUCAUUUAAUAAUAAGCACAGACAUGUGGAAAGUGCCUGACACAAAGCAGGUGCUCAAUAAAAGAGAGCUAUUGAAGU | 0.428
